Measured values from different studies.
Every numbered part comes from another study and shows a few of its results, in no order. Substitutions count along the parent as printed.
Sequence of UniProt O23661 (whole entry, looked up): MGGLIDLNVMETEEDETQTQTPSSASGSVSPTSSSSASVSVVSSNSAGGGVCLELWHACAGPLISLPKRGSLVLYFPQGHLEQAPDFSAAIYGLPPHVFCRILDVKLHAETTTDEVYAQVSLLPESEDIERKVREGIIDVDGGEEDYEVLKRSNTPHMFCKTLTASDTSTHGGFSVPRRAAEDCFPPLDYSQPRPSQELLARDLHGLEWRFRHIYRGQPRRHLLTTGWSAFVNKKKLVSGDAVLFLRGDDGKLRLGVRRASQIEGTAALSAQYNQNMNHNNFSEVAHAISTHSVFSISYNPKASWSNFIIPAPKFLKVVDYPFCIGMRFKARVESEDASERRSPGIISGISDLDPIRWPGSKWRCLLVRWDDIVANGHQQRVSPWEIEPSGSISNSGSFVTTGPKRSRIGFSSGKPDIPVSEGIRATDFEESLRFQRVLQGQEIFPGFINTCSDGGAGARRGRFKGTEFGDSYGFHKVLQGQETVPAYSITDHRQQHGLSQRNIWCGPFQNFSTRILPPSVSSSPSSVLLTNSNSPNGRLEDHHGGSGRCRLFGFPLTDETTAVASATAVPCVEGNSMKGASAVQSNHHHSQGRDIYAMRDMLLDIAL

Study 1
Target: Prothrombin, mature alpha-thrombin (F2, Homo sapiens, UniProt P00734)
Technique: aptamer microarray, sandwich
Form: DNA with 2'F-ANA
Medium: in vitro
Concentration: 200 nM
Notes: whole 15-mer aptamer, many near background
Added: Cy3 exosite-II aptamer, 400 nM
Reading: higher = stronger binding
Strand: GGTTGGTGTGGTTGG
| Modification | mean fluorescence intensity |
| --- | --- |
| 2'F-ANA at 1 2 6 7 8 10 11 12 14 15 | 53.2 a.u. |
| 2'F-ANA at 1 7 13 | 152 a.u. |
| 2'F-ANA at 2 4 12 13 14 15 | 120 a.u. |
| 2'F-ANA at 2 3 6 7 10 11 | 336 a.u. |
| 2'F-ANA at 1 2 5 7 10 11 12 | 48.3 a.u. |
| 2'F-ANA at 1 2 3 4 5 6 9 10 13 15 | 50.5 a.u. |
| 2'F-ANA at 2 5 7 10 11 12 13 14 15 | 111 a.u. |
| 2'F-ANA at 3 5 7 14 | 57.1 a.u. |

Study 2
Target: Histone acetyltransferase KAT6A, both winged helices, GST fusion (KAT6A, Homo sapiens, UniProt Q92794, residues 1-181)
Technique: protein binding microarray
Form: double-stranded DNA, one strand shown
Medium: in vitro
Concentration: not given
Notes: 8-mer, flanks averaged, mean of 2 arrays, mostly near background
Relative to: not given
Reading: higher = stronger binding
Construct (chain): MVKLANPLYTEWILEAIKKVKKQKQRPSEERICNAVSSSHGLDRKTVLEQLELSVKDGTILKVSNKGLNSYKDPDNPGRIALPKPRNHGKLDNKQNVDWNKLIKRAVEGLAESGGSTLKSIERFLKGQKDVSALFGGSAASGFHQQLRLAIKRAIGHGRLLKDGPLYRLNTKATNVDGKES
| Strand | E-score |
| --- | --- |
| AGGACACA | -0.0744 |
| TCGTCTAA | 0.0291 |
| ACTTCCAG | -0.0715 |
| ATTGATCG | 0.082 |
| GGCATCCC | -0.0107 |
| GATGGGCA | -0.164 |
| ACGCACCT | -0.00145 |
| GCCGCCAC | 0.269 |

Further values, each from its own experiment
B1: ARF1 538-665 (Arabidopsis thaliana, UniProt Q8L7G0); chain SRQIRSCTKVHMQGSAVGRAIDLTRSECYEDLFKKLEEMFDIKGELLESTKKWQVVYTDDEDDMMMVGDDPWNEFCGMVRKIFIYTPEEVKKLSPKNKLAVNARMQLKADAEENGNTEGRSSSMAGSR
P1: viral docking peptide; CKVKRKLFGSENI; partner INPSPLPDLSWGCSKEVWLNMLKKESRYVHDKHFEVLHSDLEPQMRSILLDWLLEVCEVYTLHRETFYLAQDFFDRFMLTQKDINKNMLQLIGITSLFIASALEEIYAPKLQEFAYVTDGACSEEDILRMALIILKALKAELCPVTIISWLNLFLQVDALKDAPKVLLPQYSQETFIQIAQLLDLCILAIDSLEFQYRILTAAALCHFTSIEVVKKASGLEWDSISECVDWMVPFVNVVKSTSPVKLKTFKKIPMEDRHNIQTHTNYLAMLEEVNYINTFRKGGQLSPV
| Molecule | target or system | test | test system | setting | how to read | measurement | value |
| --- | --- | --- | --- | --- | --- | --- | --- |
| B1 (ARF1 538-665) | ETT (Arabidopsis thaliana, UniProt O23661) | two-hybrid | – | – | relative to: out of 4 tests, higher = firmer interaction | positive tests | 0 |
| P1 R5A L7A | CCNE2, cyclin fold, Cln2 fusion (human) | yeast growth competition, sequencing | yeast | strong parent motif | relative to: not given, higher = stronger binding | normalised enrichment score | 0.25 |

A few entries again (study 2):
| Strand | E-score |
| --- | --- |
| ACGCACCT | -0.00145 |
| ATTGATCG | 0.082 |
| GGCATCCC | -0.0107 |
